Published values of several laboratories.
Parts stem from different laboratories: compare values within a part only. Several values in a cell are separate wells, animals, samples, runs or records.
UniProt P49674, sequence (whole entry, looked up): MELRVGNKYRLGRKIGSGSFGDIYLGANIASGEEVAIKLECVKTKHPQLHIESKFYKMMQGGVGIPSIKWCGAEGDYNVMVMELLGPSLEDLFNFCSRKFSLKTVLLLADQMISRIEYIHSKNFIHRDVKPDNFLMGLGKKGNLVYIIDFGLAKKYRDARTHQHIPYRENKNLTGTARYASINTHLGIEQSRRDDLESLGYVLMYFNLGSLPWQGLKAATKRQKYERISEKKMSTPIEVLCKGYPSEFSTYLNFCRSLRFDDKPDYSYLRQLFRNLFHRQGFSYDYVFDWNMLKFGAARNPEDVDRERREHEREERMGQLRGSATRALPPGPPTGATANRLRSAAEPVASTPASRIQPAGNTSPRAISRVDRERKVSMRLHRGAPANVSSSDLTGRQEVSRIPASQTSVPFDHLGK
UniProt P49759, sequence (whole entry, looked up): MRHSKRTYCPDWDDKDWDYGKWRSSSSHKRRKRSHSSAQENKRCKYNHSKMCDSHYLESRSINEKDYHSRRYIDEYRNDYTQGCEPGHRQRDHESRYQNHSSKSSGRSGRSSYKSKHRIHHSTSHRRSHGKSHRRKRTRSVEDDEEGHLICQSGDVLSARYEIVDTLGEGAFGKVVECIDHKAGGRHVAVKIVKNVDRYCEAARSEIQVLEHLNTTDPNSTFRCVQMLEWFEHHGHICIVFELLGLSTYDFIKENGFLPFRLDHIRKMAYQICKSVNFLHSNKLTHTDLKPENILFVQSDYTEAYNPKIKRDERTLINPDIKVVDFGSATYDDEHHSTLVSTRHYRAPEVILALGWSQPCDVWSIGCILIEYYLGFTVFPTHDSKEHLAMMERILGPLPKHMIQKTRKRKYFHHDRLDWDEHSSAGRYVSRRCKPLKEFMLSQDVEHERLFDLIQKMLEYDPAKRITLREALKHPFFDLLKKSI
UniProt P17948, sequence (whole entry, looked up): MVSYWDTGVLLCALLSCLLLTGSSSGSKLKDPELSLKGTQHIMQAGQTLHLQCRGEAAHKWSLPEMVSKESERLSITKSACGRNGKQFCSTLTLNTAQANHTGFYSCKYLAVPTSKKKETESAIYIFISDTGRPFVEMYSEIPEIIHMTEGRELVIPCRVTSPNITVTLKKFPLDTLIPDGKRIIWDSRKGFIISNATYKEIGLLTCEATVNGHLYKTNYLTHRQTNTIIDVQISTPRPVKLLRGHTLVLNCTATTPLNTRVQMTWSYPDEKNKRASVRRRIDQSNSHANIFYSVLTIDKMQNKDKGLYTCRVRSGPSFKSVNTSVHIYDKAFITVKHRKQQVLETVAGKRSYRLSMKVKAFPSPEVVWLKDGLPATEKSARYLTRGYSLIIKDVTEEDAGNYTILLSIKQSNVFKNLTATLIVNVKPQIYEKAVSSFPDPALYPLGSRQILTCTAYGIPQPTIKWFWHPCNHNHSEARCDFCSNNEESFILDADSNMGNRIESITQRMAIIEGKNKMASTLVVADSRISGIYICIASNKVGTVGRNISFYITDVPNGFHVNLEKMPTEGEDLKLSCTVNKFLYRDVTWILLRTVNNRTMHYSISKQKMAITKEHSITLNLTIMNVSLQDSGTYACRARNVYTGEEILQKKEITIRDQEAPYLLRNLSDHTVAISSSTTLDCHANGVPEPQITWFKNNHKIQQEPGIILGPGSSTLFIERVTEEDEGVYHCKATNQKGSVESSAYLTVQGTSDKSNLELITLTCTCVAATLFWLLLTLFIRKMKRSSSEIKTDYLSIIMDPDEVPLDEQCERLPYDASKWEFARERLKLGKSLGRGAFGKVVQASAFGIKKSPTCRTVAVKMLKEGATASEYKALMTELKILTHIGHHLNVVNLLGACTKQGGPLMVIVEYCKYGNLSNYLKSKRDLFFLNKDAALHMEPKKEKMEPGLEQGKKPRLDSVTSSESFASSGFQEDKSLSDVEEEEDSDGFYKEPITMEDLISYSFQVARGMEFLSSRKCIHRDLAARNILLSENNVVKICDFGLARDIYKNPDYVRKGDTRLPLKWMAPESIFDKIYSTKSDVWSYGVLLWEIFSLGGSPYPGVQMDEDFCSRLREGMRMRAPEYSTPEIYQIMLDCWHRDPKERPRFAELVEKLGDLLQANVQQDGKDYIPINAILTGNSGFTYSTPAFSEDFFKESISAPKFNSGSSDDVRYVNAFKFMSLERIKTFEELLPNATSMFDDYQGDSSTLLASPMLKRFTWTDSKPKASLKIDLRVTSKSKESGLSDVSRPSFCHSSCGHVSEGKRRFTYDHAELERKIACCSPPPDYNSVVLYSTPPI
UniProt Q9HBY8, sequence (whole entry, looked up): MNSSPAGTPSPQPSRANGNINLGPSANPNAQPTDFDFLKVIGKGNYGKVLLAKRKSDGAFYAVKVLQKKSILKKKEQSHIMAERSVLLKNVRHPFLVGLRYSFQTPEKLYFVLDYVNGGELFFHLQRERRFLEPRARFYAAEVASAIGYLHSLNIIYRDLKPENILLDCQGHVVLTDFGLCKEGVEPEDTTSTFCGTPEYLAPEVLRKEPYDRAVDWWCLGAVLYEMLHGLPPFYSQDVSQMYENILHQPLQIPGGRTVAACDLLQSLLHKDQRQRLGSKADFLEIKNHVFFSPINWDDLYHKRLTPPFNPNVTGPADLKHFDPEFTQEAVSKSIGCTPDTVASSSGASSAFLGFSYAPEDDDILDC
UniProt Q05513, sequence (whole entry, looked up): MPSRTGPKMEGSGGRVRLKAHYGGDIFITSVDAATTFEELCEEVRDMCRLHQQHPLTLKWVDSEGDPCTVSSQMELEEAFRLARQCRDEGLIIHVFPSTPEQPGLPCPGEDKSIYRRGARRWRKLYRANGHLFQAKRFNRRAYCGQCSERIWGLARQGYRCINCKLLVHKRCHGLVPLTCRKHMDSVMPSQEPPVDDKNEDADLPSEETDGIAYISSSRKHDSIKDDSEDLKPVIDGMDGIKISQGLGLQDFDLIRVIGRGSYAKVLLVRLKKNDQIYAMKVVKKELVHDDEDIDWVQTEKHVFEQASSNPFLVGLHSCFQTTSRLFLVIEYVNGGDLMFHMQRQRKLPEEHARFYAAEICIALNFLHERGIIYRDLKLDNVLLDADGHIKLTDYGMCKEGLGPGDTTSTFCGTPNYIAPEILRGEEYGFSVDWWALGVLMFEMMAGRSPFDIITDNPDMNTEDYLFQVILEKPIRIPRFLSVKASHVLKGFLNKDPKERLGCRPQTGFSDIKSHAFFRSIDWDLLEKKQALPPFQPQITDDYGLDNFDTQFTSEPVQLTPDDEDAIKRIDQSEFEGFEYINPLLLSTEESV
UniProt Q06418, sequence (whole entry, looked up): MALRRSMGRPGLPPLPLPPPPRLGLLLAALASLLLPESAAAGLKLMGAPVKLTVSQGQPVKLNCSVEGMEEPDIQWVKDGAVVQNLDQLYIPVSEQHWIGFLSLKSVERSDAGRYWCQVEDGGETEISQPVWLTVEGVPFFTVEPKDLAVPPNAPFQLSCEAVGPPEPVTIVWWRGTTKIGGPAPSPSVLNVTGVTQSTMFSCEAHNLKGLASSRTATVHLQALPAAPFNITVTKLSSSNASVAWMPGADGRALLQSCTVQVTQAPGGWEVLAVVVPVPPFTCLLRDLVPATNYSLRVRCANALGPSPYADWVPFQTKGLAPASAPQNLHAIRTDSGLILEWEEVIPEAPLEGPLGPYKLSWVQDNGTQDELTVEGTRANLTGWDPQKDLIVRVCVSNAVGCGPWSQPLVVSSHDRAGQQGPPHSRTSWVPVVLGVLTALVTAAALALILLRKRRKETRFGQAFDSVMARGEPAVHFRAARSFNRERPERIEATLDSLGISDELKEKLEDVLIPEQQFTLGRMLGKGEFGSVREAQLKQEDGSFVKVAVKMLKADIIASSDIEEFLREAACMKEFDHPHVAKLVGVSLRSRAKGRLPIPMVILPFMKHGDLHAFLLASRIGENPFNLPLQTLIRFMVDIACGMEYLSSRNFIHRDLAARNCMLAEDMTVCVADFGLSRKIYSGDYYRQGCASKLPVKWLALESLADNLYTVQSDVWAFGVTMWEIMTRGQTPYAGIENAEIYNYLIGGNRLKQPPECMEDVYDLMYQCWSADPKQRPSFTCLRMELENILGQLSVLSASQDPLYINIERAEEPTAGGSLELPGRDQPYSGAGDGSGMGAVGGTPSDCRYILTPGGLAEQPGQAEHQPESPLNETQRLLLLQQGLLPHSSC
UniProt P29317, sequence (whole entry, looked up): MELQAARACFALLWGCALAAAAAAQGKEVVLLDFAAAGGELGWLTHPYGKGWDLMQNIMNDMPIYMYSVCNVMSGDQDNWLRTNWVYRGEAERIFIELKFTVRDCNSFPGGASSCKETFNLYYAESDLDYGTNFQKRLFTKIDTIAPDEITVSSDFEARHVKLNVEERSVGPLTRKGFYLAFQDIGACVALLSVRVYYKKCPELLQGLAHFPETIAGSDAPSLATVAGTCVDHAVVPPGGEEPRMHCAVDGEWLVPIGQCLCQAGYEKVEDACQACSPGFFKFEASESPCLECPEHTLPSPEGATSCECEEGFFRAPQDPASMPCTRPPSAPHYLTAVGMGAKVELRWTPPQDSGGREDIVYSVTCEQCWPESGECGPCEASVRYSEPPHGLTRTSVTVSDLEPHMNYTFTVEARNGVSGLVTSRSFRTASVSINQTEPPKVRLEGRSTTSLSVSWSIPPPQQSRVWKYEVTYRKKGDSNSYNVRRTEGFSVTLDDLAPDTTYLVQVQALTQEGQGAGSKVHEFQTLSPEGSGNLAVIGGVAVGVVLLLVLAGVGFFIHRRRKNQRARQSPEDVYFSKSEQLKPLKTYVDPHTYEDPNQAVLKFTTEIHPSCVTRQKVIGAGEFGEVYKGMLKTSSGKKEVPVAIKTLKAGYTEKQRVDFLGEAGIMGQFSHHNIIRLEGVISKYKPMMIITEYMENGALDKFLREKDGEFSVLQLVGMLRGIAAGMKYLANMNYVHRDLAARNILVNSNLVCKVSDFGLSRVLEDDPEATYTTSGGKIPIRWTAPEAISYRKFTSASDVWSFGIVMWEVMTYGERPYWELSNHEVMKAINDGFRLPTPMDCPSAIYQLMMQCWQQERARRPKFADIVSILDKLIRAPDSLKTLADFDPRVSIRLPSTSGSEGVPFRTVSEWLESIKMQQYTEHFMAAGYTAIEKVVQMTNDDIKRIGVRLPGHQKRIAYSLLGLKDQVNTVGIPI

Block 1
Cell line: A-375
Tested at: 100 µM
Time: 36 h
| Structure (SMILES) | viability |
| --- | --- |
| CN1CCN(c2c(F)cc3c(=O)c(C(=O)O)cn4c3c2OCN4C)CC1 | 99.1% |
| O=C(O)c1ccccc1Nc1cccc(C(F)(F)F)c1 | 95% |
| Cc1cccc(C)c1NC(=O)C1CCCCN1C (stereo not drawn) | 103% |
| CNS(=O)(=O)Cc1ccc2[nH]cc(CCN(C)C)c2c1 | 86.1% |
| O=C(O[C@H]1CN2CCC1CC2)N1CCc2ccccc2[C@@H]1c1ccccc1 | 0.0413% |
| CC(C)OC(=O)CCC/C=C\C[C@@H]1[C@@H](CC[C@@H](O)CCc2ccccc2)[C@H](O)C[C@@H]1O | 1% |
| CCCCCCCCCCCCCCCCCCCCCCO | 81% |
| CC(=O)/N=c1/sc(S(N)(=O)=O)nn1C | 108% |
| CCc1cccc2c3c([nH]c12)C(CC)(CC(=O)O)OCC3 (stereo not drawn) | 115% |
| COC(=O)C1=C(C)NC(C)=C(C(=O)OC(C)(C)CN(C)CCC(c2ccccc2)c2ccccc2)C1c1cccc([N+](=O)[O-])c1 (stereo not drawn) | 53.5% |
| COc1cc(Nc2c(C#N)cnc3cc(OCCCN4CCN(C)CC4)c(OC)cc23)c(Cl)cc1Cl | 116% |
| N=C1CCCN1Cc1[nH]c(=O)[nH]c(=O)c1Cl | 95.8% |
| Cc1cc(Nc2ncc(Cl)c(Nc3ccccc3S(=O)(=O)C(C)C)n2)c(OC(C)C)cc1C1CCNCC1 | 1.11% |
| CCCC1O[C@@H]2C[C@H]3[C@@H]4CCC5=CC(=O)C=C[C@]5(C)[C@H]4[C@@H](O)C[C@]3(C)[C@]2(C(=O)CO)O1 (stereo partly drawn) | 38.6% |
| Cc1ccc(=O)n(-c2ccccc2)c1 | 102% |

Block 2
SMILES: CCCOc1ccc([C@H]2[C@H](C(=O)O)[C@@H](c3ccc4c(c3)OCO4)CN2CC(=O)Nc2c(CC)cccc2CC)cc1
Method: CellTiter-Glo
Species: human
Sample: normal-adjacent epithelium
Tested at: 0.1 µM
Baseline: DMSO
| cell line | viability |
| --- | --- |
| normal organoid sample E | 128% and 116% |
| normal organoid sample D | 112% and 135% |
| normal organoid sample F | 118% and 133% |

Block 3
Organism: Sarcocystis neurona
Effect on: parasite growth
Tested at: 10 µM
Time: 96 h
Notes: second screen
Baseline: untreated
| Compound | log2 fold change |
| --- | --- |
| CC1(C)O[C@@H]2C[C@H]3[C@@H]4C[C@H](F)C5=CC(=O)C=C[C@]5(C)[C@@]4(F)[C@@H](O)C[C@]3(C)[C@]2(C(=O)CO)O1 | 0.36 |
| CCN1CCN(C(=O)N[C@@H](C(=O)N[C@@H]2C(=O)N3[C@@H]2SC(C)(C)[C@@H]3C(=O)O)c2ccccc2)C(=O)C1=O | 0.43 |
| COc1cc2nc(N(C)CCCNC(=O)C3CCCO3)nc(N)c2cc1OC (stereo not drawn) | 0.39 |
| C=CCc1ccc(O)c(-c2ccc(O)c(CC=C)c2)c1 | 0.48 |
| CC(=O)N1CCN(c2ccc(OCC3COC(Cn4ccnc4)(c4ccc(Cl)cc4Cl)O3)cc2)CC1 (stereo not drawn) | 0.0634 |
| OC[C@H]1O[C@@H](Oc2cc(O)cc(/C=C/c3ccc(O)cc3)c2)[C@H](O)[C@@H](O)[C@@H]1O | 0.26 |
| O=C1CC[C@@H](C(=O)N2CSC[C@H]2C(=O)O)N1 | 0.41 |
| CCC[C@@H]1C[C@@H](C(=O)N[C@@H]([C@H]2O[C@H](SC)[C@H](O)[C@@H](O)[C@H]2O)[C@@H](C)O)N(C)C1 | -0.08 |
| CC1=C(CC(=O)O)c2cc(F)ccc2/C1=C\c1ccc([S+](C)[O-])cc1 (stereo not drawn) | 0.48 |
| CC(=O)SCC(Cc1ccccc1)C(=O)NCC(=O)OCc1ccccc1 (stereo not drawn) | 0.67 |
| O=c1[nH]cnc2c1ncn2[C@H]1CC[C@@H](CO)O1 | 0.4 |
| O=c1cnn([C@@H]2O[C@H](CO)[C@@H](O)[C@H]2O)c(=O)[nH]1 | 0.22 |
| Cc1cc(NS(=O)(=O)c2ccc(N)cc2)no1 | 0.16 |
| CC[C@H](C)C(=O)O[C@H]1C[C@H](O)C=C2C=C[C@H](C)[C@H](CC[C@@H](O)C[C@@H](O)CC(=O)O)[C@H]21 | 0.18 |
| CNC(=C[N+](=O)[O-])NCCSCc1csc(CN(C)C)n1 | 0.41 |
| CCCCc1oc2ccccc2c1C(=O)c1cc(I)c(OCCN(CC)CC)c(I)c1 | 0.12 |
| NC(=O)c1cnccn1 | 0.0534 |
| Cc1ncc([N+](=O)[O-])n1CCO | 0.24 |
| CN1CCN(C2=Nc3ccccc3Oc3ccc(Cl)cc32)CC1 | 0.5 |

Block 4
Compound: Nc1nc(Nc2ccc(S(N)(=O)=O)cc2)nn1C(=S)Nc1c(F)cccc1F
Effect on: enzyme activity
Mode: inhibitor
Tested at: 0.5 µM
Baseline: control
| target | remaining activity |
| --- | --- |
| SRPK1 (Homo sapiens, UniProt Q96SB4) | 25.9% |
| SIK2 (Homo sapiens, UniProt Q9H0K1) | 16.1% |
| CSNK1D (Homo sapiens, UniProt P48730) | 83.7% |
| CSNK1E (Homo sapiens, UniProt P49674) | 91.8% |
| Cyclin-dependent kinase 2, with cyclin E (CDK2, Homo sapiens, UniProt P24941) | 8.92% |
| CAMKK1 (Homo sapiens, UniProt Q8N5S9) | 36% |
| IGF1R (Homo sapiens, UniProt P08069) | 0.625% |
| PAK6 (Homo sapiens, UniProt Q9NQU5) | 81.9% |
| CLK1 (Homo sapiens, UniProt P49759) | 2.26% |
| SGK2 (Homo sapiens, UniProt Q9HBY8) | 42% |
| JAK1 (Homo sapiens, UniProt P23458) | 4.86% |
| TYRO3 (Homo sapiens, UniProt Q06418) | 29.8% |
| FLT1 (Homo sapiens, UniProt P17948) | 11.4% |
| RPS6KA3 (Homo sapiens, UniProt P51812) | -0.692% |
| TEC (Homo sapiens, UniProt P42680) | 106% |
| CLK2 (Homo sapiens, UniProt P49760) | 3.81% |
| EPHA2 (Homo sapiens, UniProt P29317) | 29.9% |
| PRKCZ (Homo sapiens, UniProt Q05513) | 83.7% |
| PRKCQ (Homo sapiens, UniProt Q04759) | 15.1% |
| MAP3K20 (Homo sapiens, UniProt Q9NYL2) | 49.1% |

Some of these lines once more (block 1):
| Structure (SMILES) | viability |
| --- | --- |
| CNS(=O)(=O)Cc1ccc2[nH]cc(CCN(C)C)c2c1 | 86.1% |
| O=C(O[C@H]1CN2CCC1CC2)N1CCc2ccccc2[C@@H]1c1ccccc1 | 0.0413% |
| CC(C)OC(=O)CCC/C=C\C[C@@H]1[C@@H](CC[C@@H](O)CCc2ccccc2)[C@H](O)C[C@@H]1O | 1% |
| CCCCCCCCCCCCCCCCCCCCCCO | 81% |
